Measurements from different studies.
Every numbered part comes from another study and shows a few of its results, in no order.
Chain of UniProt P42338 (whole entry, looked up): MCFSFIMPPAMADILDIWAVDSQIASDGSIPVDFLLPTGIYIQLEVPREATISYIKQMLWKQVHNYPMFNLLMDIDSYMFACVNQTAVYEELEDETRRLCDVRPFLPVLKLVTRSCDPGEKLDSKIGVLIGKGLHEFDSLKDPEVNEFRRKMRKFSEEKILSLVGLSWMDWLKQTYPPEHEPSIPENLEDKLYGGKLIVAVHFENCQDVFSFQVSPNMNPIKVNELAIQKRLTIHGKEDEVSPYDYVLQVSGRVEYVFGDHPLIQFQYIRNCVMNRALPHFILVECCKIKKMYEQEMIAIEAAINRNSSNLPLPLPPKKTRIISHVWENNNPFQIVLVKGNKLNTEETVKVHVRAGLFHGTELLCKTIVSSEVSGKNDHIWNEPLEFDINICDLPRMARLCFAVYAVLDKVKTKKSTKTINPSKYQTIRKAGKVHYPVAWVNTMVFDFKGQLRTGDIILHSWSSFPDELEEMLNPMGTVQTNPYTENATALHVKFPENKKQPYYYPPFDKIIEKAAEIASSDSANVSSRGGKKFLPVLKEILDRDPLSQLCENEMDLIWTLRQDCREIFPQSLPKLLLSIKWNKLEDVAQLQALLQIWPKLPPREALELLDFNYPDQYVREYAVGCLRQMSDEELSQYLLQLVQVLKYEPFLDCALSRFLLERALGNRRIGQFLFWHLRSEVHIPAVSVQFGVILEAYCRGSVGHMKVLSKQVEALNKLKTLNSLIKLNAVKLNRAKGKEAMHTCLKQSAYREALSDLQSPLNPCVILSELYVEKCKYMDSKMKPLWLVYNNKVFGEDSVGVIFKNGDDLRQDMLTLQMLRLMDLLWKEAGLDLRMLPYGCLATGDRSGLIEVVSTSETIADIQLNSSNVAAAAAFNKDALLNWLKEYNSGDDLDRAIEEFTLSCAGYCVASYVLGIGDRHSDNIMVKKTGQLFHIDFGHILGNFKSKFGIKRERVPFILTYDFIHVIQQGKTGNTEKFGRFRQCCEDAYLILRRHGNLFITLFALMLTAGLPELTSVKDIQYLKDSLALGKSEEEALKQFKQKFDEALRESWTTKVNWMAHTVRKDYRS
Chain of UniProt O43353 (whole entry, looked up): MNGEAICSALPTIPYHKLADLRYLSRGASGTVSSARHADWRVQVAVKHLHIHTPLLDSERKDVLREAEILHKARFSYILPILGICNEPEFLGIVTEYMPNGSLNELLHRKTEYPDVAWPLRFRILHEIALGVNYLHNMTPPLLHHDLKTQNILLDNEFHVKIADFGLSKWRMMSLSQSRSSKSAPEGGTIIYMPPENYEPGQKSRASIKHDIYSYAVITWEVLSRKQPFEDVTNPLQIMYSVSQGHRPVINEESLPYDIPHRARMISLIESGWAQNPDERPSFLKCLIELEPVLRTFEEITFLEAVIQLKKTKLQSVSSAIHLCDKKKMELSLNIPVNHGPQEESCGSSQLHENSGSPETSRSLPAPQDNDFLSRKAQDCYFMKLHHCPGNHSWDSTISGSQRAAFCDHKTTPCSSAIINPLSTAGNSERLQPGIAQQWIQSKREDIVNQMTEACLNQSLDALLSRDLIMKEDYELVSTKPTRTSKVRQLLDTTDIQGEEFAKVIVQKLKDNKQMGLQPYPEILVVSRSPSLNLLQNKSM
Chain of UniProt P31152 (whole entry, looked up): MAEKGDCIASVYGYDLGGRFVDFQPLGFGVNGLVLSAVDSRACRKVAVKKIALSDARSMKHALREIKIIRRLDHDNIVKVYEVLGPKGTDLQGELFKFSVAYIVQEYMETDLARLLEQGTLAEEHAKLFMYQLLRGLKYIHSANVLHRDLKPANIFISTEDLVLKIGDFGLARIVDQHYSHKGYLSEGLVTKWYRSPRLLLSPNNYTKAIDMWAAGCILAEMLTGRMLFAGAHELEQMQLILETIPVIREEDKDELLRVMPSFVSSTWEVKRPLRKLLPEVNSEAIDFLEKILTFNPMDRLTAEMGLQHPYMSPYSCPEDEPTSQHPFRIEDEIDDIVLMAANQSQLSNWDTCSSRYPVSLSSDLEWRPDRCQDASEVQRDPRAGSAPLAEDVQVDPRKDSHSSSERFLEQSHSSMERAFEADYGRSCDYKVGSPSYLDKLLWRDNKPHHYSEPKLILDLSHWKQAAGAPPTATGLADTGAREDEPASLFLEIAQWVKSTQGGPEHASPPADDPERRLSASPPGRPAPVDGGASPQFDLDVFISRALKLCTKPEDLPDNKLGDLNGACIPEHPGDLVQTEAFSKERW
Chain of UniProt Q6P2M8 (whole entry, looked up): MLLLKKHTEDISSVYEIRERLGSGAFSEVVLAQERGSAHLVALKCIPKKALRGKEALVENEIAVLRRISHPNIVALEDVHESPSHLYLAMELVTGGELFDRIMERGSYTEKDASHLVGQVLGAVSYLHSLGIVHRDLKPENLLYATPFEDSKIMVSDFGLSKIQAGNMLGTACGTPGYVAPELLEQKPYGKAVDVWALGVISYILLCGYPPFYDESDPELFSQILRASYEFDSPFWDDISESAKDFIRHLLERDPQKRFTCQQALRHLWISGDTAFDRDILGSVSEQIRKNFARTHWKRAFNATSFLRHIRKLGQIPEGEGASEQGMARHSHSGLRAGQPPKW

Sample 1 — read-out: enzyme activity; mode: inhibitor; tested at: 0.5 µM; baseline: control; quantity: remaining activity
Target: Leucine-rich repeat serine/threonine-protein kinase 2 (LRRK2, Homo sapiens, UniProt Q5S007)
Chain of UniProt Q5S007 (whole entry, looked up): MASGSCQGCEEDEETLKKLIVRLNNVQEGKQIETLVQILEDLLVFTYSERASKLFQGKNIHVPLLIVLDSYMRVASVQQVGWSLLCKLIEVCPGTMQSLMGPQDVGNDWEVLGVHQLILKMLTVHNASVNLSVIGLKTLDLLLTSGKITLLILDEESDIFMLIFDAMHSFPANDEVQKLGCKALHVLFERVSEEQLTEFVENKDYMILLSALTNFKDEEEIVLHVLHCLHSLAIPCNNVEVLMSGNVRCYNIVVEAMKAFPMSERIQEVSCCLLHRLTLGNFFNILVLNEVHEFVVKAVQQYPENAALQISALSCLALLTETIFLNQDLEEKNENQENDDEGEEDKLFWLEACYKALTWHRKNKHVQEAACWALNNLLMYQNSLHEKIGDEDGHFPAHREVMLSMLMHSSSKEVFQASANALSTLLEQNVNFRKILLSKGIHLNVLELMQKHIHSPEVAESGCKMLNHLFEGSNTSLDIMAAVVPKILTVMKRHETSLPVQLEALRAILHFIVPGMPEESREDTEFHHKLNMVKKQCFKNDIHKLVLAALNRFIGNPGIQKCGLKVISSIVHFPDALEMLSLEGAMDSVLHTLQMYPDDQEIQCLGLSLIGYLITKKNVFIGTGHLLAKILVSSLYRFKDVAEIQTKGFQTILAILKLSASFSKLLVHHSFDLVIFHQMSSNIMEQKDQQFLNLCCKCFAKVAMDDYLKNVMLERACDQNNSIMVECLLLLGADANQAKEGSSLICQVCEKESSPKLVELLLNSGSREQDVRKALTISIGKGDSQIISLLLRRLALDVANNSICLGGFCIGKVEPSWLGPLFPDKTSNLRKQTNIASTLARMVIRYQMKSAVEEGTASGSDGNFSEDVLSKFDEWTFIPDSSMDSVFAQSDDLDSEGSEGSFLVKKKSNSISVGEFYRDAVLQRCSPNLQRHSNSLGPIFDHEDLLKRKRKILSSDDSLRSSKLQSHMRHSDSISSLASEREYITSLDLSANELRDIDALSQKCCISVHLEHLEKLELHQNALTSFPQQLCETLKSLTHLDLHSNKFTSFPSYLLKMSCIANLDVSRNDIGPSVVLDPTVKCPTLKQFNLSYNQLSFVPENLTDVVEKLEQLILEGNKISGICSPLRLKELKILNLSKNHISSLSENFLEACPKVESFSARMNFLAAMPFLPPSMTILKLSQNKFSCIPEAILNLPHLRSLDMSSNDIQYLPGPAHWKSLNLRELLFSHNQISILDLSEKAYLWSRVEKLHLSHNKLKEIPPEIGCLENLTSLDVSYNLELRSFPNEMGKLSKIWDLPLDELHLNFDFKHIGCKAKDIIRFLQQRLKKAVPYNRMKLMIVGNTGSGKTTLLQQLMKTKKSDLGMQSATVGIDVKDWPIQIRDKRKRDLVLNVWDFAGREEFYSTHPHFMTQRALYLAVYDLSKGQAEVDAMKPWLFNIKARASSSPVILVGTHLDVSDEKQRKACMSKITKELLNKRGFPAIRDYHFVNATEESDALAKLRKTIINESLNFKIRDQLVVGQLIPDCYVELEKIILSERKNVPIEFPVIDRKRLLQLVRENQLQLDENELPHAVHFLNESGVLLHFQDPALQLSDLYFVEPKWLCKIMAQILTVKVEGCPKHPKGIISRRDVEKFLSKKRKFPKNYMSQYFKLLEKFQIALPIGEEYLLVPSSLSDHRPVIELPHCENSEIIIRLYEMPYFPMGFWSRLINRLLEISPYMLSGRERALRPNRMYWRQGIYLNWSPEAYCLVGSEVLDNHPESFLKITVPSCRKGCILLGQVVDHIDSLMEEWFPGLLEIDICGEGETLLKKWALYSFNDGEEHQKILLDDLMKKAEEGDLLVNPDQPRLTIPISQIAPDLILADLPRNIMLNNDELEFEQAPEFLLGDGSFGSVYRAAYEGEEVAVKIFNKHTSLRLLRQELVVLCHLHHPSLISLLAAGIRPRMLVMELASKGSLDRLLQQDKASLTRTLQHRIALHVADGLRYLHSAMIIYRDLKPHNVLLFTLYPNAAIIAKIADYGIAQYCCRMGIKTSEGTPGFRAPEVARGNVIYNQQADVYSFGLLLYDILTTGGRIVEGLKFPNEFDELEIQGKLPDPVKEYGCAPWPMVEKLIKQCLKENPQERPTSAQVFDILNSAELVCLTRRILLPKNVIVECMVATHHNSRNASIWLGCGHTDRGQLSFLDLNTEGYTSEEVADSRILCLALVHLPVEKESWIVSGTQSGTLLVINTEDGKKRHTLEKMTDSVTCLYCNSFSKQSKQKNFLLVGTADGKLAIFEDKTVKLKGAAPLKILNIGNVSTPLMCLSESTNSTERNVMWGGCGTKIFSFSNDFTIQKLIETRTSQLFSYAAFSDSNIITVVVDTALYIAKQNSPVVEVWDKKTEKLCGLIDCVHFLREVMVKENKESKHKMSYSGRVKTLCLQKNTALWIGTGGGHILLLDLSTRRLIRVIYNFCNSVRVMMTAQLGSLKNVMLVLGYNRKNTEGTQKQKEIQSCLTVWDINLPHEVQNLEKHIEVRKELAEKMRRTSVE
CC(C)[C@H](CO)Nc1nc(Nc2cc(N)cc(Cl)c2)c2ncn(C(C)C)c2n1: 101%
O=C1NC(=O)C(c2cn(CCCO)c3ncccc23)=C1c1cnccn1: 90%
O=C(CCCc1ccc(-c2ccccc2F)cc1)Nc1ccc(O)cc1: 98%
COc1cc2ncnc(Nc3ccc(Oc4ccccc4)cc3)c2cc1OC: 65.3%
O=S(=O)(c1cccc2cnccc12)N1CCCNCC1: 94.2%
COc1ccc(CNC(=O)Nc2ncc([N+](=O)[O-])s2)cc1: 87.7%
OCC(O)CCON=C1C(c2c(O)[nH]c3ccccc23)=Nc2ccccc21 (centres unmarked): 81.2%
N#CC(C#N)=C(N)/C(C#N)=C/c1ccc(O)cc1: 97.1%
COc1ccc(C(=O)Nc2sc3c(c2C(N)=O)CCCC3)cc1OC: 87.4%
COc1ccc(OC)c2c(=S)c3ccccc3[nH]c12: 98%
Nc1[nH]nc2nc3ccccc3nc12: 90.5%
Cn1c2ccccc2c2c3c(c4c5ccccc5n(CCC#N)c4c21)CNC3=O: 30.5%
O=c1c2ccccc2[nH]c(=S)n1CCN1CCC(=C(c2ccc(F)cc2)c2ccc(F)cc2)CC1: 93.9%
COc1cc2ncnc(Nc3ccc(F)c(Cl)c3)c2cc1OCCCN1CCOCC1: 108%
COc1cc2nccc(Oc3ccc(NC(=S)NC(=O)c4ccccc4C)cc3)c2cc1OC: 94.4%

Sample 2 — read-out: binding; tested at: 1 µM; quantity: remaining binding
Structure (SMILES): Cc1ccc(NC(=O)c2ccnc(C(F)(F)F)c2)cc1-c1cc(OCCO)nc(N2CCOCC2)c1
MAP2K3 (Homo sapiens, UniProt P46734): 77%
KIT (Homo sapiens, UniProt P10721, L576P): 100%
CDC42BPA (Homo sapiens, UniProt Q5VT25); competition with immobilised ligand: 100%
STK4 (Homo sapiens, UniProt Q13043); competition with immobilised ligand: 100%
RET (Homo sapiens, UniProt P07949, M918T): 81%
DSTYK (Homo sapiens, UniProt Q6XUX3): 90%
MERTK (Homo sapiens, UniProt Q12866); competition with immobilised ligand: 89%

Sample 3 — cell line: HuT78; tested at: 2 µM; time: 48 h; baseline: untreated; quantity: viability
Nc1nc(N)c2nc(-c3cccc(O)c3)c(-c3cccc(O)c3)nc2n1: 158%
C#Cc1cccc(Nc2ncnc3cc(OCCOC)c(OCCO)cc23)c1: 104%
CO[C@H]1C[C@@H]2CC[C@@H](C)[C@@](O)(O2)C(=O)C(=O)N2CCCC[C@H]2C(=O)O[C@H]([C@H](C)C[C@@H]2CC[C@H](n3cnnn3)[C@H](OC)C2)CC(=O)[C@H](C)/C=C(\C)[C@@H](O)[C@@H](OC)C(=O)[C@H](C)C[C@H](C)/C=C/C=C/C=C/1C: 68%
Cn1cc(-c2ccc3nnc(C(F)(F)c4ccc5ncccc5c4)n3n2)cn1: 96.8%
CCCCCCCCc1ccc(CCC(N)(CO)CO)cc1: 91.1%
O=C1NC(=O)/C(=C/c2ccc3c(c2)OC(F)(F)O3)S1: 123%
COc1cc2c(Oc3ccc4[nH]c(C)cc4c3F)ncnc2cc1OCCCN1CCCC1: 162%

Sample 4 — read-out: cell-free assay; technique: competition with immobilised ligand; tested at: 1 µM; quantity: remaining binding
Compound: CN([C@@H]1CCc2c(CC(=O)O)c3cc(S(C)(=O)=O)ccc3n2C1)S(=O)(=O)c1ccc(F)cc1
SRPK3 (Homo sapiens, UniProt Q9UPE1): 100%
MAPK4 (Homo sapiens, UniProt P31152): 100%
PNCK (Homo sapiens, UniProt Q6P2M8): 90%
PIK3CB (Homo sapiens, UniProt P42338): 100%
EGFR (Homo sapiens, UniProt P00533, G719C): 98%
CDK4 (Homo sapiens, UniProt P11802): 90%
PIP5K1A (Homo sapiens, UniProt Q99755): 100%
STK35 (Homo sapiens, UniProt Q8TDR2): 100%
RIPK2 (Homo sapiens, UniProt O43353): 100%

For quick reference, copied from above (sample 3):
Nc1nc(N)c2nc(-c3cccc(O)c3)c(-c3cccc(O)c3)nc2n1: 158%
O=C1NC(=O)/C(=C/c2ccc3c(c2)OC(F)(F)O3)S1: 123%
COc1cc2c(Oc3ccc4[nH]c(C)cc4c3F)ncnc2cc1OCCCN1CCCC1: 162%
C#Cc1cccc(Nc2ncnc3cc(OCCOC)c(OCCO)cc23)c1: 104%
CO[C@H]1C[C@@H]2CC[C@@H](C)[C@@](O)(O2)C(=O)C(=O)N2CCCC[C@H]2C(=O)O[C@H]([C@H](C)C[C@@H]2CC[C@H](n3cnnn3)[C@H](OC)C2)CC(=O)[C@H](C)/C=C(\C)[C@@H](O)[C@@H](OC)C(=O)[C@H](C)C[C@H](C)/C=C/C=C/C=C/1C: 68%
